Assay results collected from several papers.
Protocols differ between the studies behind these lines. Numbers after ± are the reported error. Where no end group is shown, it is not given here.
MAL12: Alpha-glucosidase MAL12 (MAL12, Saccharomyces cerevisiae S288c, UniProt P53341)
Sequence of UniProt P53341 (whole entry, looked up): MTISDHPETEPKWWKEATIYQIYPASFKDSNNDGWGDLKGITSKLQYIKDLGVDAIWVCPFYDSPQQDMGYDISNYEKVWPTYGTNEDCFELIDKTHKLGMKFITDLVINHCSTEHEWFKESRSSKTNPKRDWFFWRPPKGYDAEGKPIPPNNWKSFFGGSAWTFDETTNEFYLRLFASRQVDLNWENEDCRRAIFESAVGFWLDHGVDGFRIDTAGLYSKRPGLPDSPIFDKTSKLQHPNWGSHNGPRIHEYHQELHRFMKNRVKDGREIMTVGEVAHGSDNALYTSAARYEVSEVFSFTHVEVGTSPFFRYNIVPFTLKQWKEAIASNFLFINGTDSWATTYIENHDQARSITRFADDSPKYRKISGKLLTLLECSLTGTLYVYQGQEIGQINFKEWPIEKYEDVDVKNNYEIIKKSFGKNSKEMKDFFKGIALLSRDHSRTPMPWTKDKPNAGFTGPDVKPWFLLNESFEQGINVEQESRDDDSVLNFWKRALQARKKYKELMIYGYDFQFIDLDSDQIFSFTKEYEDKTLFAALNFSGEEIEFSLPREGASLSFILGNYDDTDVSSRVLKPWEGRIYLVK
SCN9A: Sodium channel protein type 9 subunit alpha (SCN9A, Homo sapiens, UniProt Q15858)
Sequence of UniProt Q15858 (whole entry, looked up): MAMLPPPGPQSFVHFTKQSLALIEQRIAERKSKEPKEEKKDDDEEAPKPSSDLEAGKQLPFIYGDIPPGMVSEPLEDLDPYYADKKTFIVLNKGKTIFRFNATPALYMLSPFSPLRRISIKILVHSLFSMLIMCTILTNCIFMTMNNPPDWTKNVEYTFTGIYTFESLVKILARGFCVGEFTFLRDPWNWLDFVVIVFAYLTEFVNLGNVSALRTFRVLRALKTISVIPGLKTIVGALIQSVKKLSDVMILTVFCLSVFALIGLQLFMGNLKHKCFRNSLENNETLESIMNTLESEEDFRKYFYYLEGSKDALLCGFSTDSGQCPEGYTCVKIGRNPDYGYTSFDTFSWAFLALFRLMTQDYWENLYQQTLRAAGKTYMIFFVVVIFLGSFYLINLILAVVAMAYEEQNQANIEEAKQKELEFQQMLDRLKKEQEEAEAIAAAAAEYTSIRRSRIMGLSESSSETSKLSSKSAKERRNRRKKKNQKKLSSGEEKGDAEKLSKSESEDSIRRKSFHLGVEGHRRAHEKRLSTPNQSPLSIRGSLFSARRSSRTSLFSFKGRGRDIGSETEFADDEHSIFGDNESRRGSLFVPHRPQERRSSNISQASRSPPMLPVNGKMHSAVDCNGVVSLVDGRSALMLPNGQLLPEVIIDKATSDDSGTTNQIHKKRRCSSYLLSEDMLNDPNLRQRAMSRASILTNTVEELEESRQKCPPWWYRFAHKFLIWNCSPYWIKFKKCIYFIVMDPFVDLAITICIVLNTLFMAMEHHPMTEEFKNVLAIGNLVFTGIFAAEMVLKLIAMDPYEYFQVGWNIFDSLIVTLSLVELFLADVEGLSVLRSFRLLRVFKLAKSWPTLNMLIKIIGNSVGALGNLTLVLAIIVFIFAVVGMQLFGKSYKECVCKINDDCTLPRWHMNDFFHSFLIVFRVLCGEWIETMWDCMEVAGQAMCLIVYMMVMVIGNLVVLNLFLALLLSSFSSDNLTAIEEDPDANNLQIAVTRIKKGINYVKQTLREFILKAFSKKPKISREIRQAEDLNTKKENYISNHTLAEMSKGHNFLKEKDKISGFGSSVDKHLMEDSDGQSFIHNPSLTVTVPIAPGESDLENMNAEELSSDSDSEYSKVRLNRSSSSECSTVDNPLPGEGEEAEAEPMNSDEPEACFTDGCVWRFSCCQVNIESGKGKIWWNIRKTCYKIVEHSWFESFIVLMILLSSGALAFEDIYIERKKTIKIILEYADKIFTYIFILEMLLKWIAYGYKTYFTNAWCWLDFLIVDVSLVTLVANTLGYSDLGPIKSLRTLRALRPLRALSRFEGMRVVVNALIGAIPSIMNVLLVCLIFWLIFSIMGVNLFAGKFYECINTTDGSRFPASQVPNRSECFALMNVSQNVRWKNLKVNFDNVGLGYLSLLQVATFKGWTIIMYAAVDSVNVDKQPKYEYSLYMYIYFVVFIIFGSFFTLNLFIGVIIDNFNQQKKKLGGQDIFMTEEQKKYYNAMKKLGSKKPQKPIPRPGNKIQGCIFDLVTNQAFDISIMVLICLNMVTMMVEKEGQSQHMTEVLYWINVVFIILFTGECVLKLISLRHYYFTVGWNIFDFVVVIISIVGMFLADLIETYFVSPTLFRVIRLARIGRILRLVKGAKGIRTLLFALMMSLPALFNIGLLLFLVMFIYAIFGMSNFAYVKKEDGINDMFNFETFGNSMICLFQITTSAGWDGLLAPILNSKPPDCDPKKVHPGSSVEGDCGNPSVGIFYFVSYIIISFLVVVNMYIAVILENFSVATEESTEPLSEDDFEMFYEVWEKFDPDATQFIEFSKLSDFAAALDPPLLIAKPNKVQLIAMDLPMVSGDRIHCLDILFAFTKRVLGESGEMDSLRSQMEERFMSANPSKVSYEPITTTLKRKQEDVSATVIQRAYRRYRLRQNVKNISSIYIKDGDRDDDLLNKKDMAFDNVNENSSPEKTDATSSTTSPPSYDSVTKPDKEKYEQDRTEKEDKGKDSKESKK
GRM4: Metabotropic glutamate receptor 4 (GRM4, Homo sapiens, UniProt Q14833)
Sequence of UniProt Q14833 (whole entry, looked up): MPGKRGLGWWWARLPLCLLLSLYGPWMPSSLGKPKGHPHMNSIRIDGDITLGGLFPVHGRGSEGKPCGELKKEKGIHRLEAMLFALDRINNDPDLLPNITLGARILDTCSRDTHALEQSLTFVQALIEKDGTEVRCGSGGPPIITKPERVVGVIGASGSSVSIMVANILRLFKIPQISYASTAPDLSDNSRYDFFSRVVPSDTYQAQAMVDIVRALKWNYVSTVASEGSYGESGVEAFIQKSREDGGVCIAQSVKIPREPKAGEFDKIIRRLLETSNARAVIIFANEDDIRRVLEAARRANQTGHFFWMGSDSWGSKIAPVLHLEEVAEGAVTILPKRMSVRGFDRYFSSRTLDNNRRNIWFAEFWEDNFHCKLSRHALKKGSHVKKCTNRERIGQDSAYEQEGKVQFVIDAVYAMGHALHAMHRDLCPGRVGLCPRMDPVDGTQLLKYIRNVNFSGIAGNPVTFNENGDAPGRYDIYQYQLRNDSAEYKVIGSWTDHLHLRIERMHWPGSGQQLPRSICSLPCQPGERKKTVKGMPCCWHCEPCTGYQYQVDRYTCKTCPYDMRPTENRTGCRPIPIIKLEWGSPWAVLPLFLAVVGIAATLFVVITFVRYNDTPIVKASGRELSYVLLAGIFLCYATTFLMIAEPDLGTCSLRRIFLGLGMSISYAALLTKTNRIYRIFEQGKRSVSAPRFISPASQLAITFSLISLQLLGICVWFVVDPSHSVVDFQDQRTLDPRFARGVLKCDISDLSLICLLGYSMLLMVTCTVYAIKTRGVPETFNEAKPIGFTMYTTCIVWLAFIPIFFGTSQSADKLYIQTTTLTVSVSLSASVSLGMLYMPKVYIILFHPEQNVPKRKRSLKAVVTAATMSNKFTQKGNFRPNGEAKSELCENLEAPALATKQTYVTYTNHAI
HBA1 with sickle beta chain: Hemoglobin subunit alpha, with sickle beta chain (HBA1, Homo sapiens, UniProt P69905)
Sequence of UniProt P69905 (whole entry, looked up): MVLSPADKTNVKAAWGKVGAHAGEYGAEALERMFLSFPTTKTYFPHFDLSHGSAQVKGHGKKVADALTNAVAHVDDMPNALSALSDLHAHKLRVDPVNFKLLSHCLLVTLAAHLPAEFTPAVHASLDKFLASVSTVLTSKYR
T1: RNA repeat, r(CGG) repeat (Homo sapiens); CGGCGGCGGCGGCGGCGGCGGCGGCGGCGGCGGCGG
B1: disulfide; chain GLIHQYCQGYWRHVPPSPREAPGAPRSPEPDQKKPRNRRHHPPDT (disulfide (positions not given here))
Sequence of UniProt Q9NZC7 (whole entry, unmodified, looked up): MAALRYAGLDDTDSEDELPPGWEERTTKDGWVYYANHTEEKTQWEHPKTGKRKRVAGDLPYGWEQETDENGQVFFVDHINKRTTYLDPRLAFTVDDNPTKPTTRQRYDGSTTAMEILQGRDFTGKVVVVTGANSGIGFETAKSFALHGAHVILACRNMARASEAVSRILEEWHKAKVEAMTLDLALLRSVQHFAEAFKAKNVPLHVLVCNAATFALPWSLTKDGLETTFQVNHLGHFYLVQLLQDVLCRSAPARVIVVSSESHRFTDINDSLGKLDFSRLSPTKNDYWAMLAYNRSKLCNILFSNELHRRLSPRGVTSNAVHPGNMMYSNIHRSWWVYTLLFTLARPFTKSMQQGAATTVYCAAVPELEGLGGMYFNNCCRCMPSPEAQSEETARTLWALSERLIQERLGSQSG
Sequence of UniProt Q64663 (whole entry, unmodified, looked up): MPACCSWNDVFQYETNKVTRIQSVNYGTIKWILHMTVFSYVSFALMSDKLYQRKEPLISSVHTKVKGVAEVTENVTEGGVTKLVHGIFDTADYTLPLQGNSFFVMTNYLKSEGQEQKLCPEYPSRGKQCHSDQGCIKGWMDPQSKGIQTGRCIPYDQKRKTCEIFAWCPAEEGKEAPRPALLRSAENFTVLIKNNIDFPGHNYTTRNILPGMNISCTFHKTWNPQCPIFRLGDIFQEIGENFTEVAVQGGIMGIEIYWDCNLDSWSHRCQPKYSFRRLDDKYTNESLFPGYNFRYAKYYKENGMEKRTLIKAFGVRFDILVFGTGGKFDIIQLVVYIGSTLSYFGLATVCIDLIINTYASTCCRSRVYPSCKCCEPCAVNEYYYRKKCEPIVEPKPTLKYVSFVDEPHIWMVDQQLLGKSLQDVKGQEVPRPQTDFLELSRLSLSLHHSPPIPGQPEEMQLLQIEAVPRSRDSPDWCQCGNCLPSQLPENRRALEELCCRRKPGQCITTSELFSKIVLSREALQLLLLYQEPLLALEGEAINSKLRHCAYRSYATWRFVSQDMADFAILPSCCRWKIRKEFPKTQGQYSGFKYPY
Sequence of UniProt P07148 (whole entry, looked up): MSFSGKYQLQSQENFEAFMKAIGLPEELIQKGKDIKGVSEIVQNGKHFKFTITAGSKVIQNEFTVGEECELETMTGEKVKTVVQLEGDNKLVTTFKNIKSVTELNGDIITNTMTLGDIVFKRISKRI

Substance	target	assay	test system	setting	how to read	endpoint	result
CN(C)c1ccc(C(=NN=Cc2cc(Br)ccc2O)c2ccc(N(C)C)cc2)cc1	MAL12	enzyme activity, inhibitor		concentration not given, pH 6.8, 37 °C, together with: p-nitrophenyl alpha-D-glucopyranoside		activity	inactive
Cc1c2cc[n+](CCN3CCCCC3)cc2c(C)c2c1[nH]c1ccc(O)cc12	T1, RNA repeat, r(CGG) repeat (Homo sapiens)	DGCR8 displacement, competitor, TR-FRET		pH 7.5, 110 mM KCl, with yeast tRNA, together with: DGCR8 protein		IC50	13 µM
O=C[C@H](O)[C@@H](O)[C@@H](O)[C@H](O)CO	PA-I galactophilic lectin (lecA, Pseudomonas aeruginosa, UniProt Q05097)	isothermal titration calorimetry		pH 7.5, 25 °C, together with: 25 mM CaCl2		ΔG	-25.1 ± 1.26 kJ/mol
CC[C@]1(O)C[C@H]2CN(CCc3c([nH]c4ccccc34)[C@@](C(=O)OC)(c3cc4c(cc3OC)N(C=O)[C@H]3[C@@](O)(C(=O)OC)[C@H](OC(C)=O)[C@]5(CC)C=CCN6CC[C@]43[C@@H]65)C2)C1	Organic cation/carnitine transporter 2 (SLC22A5, Homo sapiens, UniProt O76082)	transporter uptake, inhibitor		500 µM		inhibition	95.1%
COc1ccc(OCC2c3cc(OC)c(OC)cc3CCN2C(=O)c2cccc(Cl)c2)cc1 (stereo not shown)	Glutamate receptor ionotropic, NMDA 2D, with NR1 (Rattus norvegicus, UniProt Q62645)	outside-out patch clamp		10 µM, together with: GluN1 co-expressed		channel opening frequency	303 ± 57 Hz
COC(=O)c1scc(C)c1NC(=O)C(C)N1CCOCC1 (stereo not shown)	SCN9A	cell membrane chromatography			higher = stronger binding	capacity factor k′	4.8
CSc1ccc(/C=C2/C(C)=C(CC(=O)O)c3cc(F)ccc32)cc1	Dual specificity calcium/calmodulin-dependent 3',5'-cyclic nucleotide phosphodiesterase 1B (Homo sapiens, UniProt Q01064)	cAMP hydrolysis, inhibitor, IMAP fluorescence polarization		up to 200 µM		IC50	inactive
COc1c(O)cc(O)c2c(=O)cc(-c3ccc(O)cc3)oc12	MAL12	enzyme activity, inhibitor, absorbance		25 µM		inhibition	58.2%
CCCCCC(=O)/C=C/C=O	Endoplasmic reticulum chaperone BiP (HSPA5, Homo sapiens, UniProt P11021)	ATPase activity, covalent inhibitor		1 h preincubation, pH 7.4, 37 °C, estimated value, together with: ATP 0.1 mM		IC50	43.9 µM
B1	Neuropilin-2 (NRP2, Homo sapiens, UniProt O60462)	sedimentation velocity AUC		2.5-fold molar excess, 8 µM b1b2 domain		apparent molecular mass, monomer peak	41.7 ± 1.8 kDa
BzATP	P2X purinoceptor 7 (P2rx7, Rattus norvegicus, UniProt Q64663, I214A)	ion current, agonist, two-electrode voltage clamp	Xenopus laevis oocytes	10 µM, I214A mutant		deactivation time constant	21 ± 3.5 s
COc1ccc(CNC(=O)c2ccc3c(c2)C(=O)c2ccccc2C3=O)cc1	D(2) dopamine receptor (DRD2, Homo sapiens, UniProt P14416)	calcium mobilization, antagonist	HEK293 T-REx D2 Gqi5	up to 77 µM		AC50	inactive
COc1ccccc1/C=N/Nc1nc2ccccc2nc1C	GRM4	potentiation of glutamate response, positive allosteric modulator	CHO cells expressing Gqi5	together with: glutamate EC20		EC50	inactive
KACESRCTKLEYDPR	human IgE	peptide microarray	peptide, peanut/walnut-allergic patient sera	concentration not given, 16 h, 4 °C		patients with IgE binding	50%
Cc1ccc(C(=O)Nc2ccc3ccccc3c2)o1	Otop1 (Mus musculus, UniProt Q80VM9, E226A)	whole-cell patch-clamp		concentration not given, pH 6.0	baseline: wild type	effect on acid-evoked current	decreased
Nc1ncnc2c1ncn2[C@@H]1O[C@H](COP(=O)(O)OP(=O)(O)OP(=O)(O)O)[C@@H](O)[C@H]1O	P2X purinoceptor 7 (P2rx7, Rattus norvegicus, UniProt Q64663)	ion current, whole-cell patch clamp	HEK293, transfected	together with: after agonist washout, Ca2+ medium		decay time constant τ1	0.4 ± 0.2 s

Substance	target	assay	test system	setting	how to read	endpoint	result
CSCC[C@H](NC(=O)[C@@H]1CCCN1C(=O)[C@@H](NC(=O)[C@H](Cc1ccc(O)cc1)NC(=O)[C@H](C)NC(=O)[C@@H]1CCCN1C(=O)[C@@H]1CCCN1C(=O)[C@@H]1CCCN1C(=O)[C@H](CO)NC(=O)[C@H](Cc1c[nH]cn1)NC(=O)CN)[C@@H](C)O)C(=O)N[C@@H](CO)C(=O)O	WW domain-containing oxidoreductase, WW1-WW2 tandem domains (WWOX, Homo sapiens, UniProt Q9NZC7)	binding, ITC		pH 7.0, 25 °C		TΔS	1.09 ± 1.42 kJ/mol
CC1=C(C(=O)OCc2ccccc2)C(c2ccc(-c3ccccc3)cc2)N(Cc2ccc(-c3nnn[nH]3)cc2)C(=S)N1 (stereo not shown)	Heat shock 70 kDa protein 1A, with Hdj2 (HSPA1A, Homo sapiens, UniProt P0DMV8)	ATPase activity, inhibitor		100 µM, Hsp40-stimulated activity, together with: Hdj2 Hsp70:Hsp40 1:0.5	baseline: DMSO, negative means inhibition	fold change in activity	-5.3 fold
COC(=O)c1scc(C)c1NC(=O)C(C)N1CCNCC1 (stereo not shown)	SCN9A	cell membrane chromatography			higher = stronger binding	capacity factor k′	59.2
CC(C)C[C@H](NC(=O)[C@@H](NC(=O)[C@@H](N)[C@@H](C)O)C(C)C)C(=O)N1CCC[C@H]1C(=O)N1CCC[C@H]1C(=O)N1CCC[C@H]1C(=O)N[C@@H](C)C(=O)N[C@@H](Cc1ccc(O)cc1)C(=O)N[C@@H](CCCNC(=N)N)C(=O)N[C@@H](Cc1c[nH]cn1)C(=O)N[C@@H](CCCNC(=N)N)C(=O)N[C@@H](CC(N)=O)C(=O)O	WW domain-containing oxidoreductase, WW1 domain (WWOX, Homo sapiens, UniProt Q9NZC7)	binding to WW1 domain, isothermal titration calorimetry		concentration not given, pH 7.0, 25 °C		binding enthalpy ΔH	-15.2 ± 1.26 kJ/mol
CC(C)OCc1ccc(C=O)o1	HBA1 with sickle beta chain	oxygen affinity	sickle red cell lysate	2 mM	baseline: untreated	P50 change	38.4 ± 10.4%
CCCCCCCCCCCCCCCC(=O)O	Fatty-acyl-AMP ligase ecdI (ecdI, Aspergillus rugulosus, UniProt K0E2F3)	substrate		~40 µM, 30 min, pH 7.0, ambient, together with: holo-EcdA-M1 10 µM, ATP 5 mM		acyl loading of EcdA-M1	27%
C[C@H]1CN(C(=O)Nc2ccc(C(F)(F)F)cc2)CCN1c1ccnc(Nc2ccc(Cl)cc2)n1	MAL12	enzyme activity, inhibitor	Saccharomyces cerevisiae	together with: p-nitrophenyl glucoside substrate	baseline: S over R enantiomer	activity ratio	~3 fold
COc1c(O)ccc2c(=O)cc(-c3ccccc3)oc12	MAL12	enzyme activity, inhibitor		10 µM, together with: p-nitrophenyl α-D-glucopyranoside		inhibition	< 1%
O=C(Nc1ccccn1)C12CC1/C(=N\O)c1ccccc1O2 (stereo not shown)	GRM4	potentiator, calcium mobilization	CHO expressing hmGluR4/Gqi5	together with: glutamate EC20	baseline: maximal glutamate	maximal response	160 ± 10.6%
CCCCOC(=O)c1scc(C)c1NC(=O)C(C)NCCC (stereo not shown)	SCN9A	cell membrane chromatography			higher = stronger binding	capacity factor k′	73
CC[C@H](C)[C@H](NC(=O)[C@@H]1CCCN1C(=O)[C@@H]1CCCN1C(=O)[C@@H]1CCCN1C(=O)[C@@H](NC(=O)[C@H](CC(N)=O)NC(=O)[C@@H](N)Cc1ccccc1)[C@@H](C)CC)C(=O)N[C@@H](Cc1ccc(O)cc1)C(=O)N[C@H](C(=O)N[C@@H](CO)C(=O)N[C@@H](CCCNC(=N)N)C(=O)N[C@@H](C)C(=O)O)[C@@H](C)O	WW domain-containing oxidoreductase, WW2 domain Y85W (WWOX, Homo sapiens, UniProt Q9NZC7, Y85W)	binding, ITC		pH 7.0, 25 °C		TΔS	-1.67 ± 2.59 kJ/mol
CCCOCc1ccc(C=O)o1	HBA1 with sickle beta chain	oxygen affinity	sickle red cell lysate	2 mM	baseline: untreated	P50 change	44 ± 9.7%
CCCCCCCCCN[C@H]1CNC1=O	N-acylethanolamine-hydrolyzing acid amidase (NAAA, Homo sapiens, UniProt Q02083)	enzyme activity, inhibitor, fluorogenic PAMCA hydrolysis		pH 4.5, together with: 5 µM PAMCA		IC50	inactive
CCc1ccc(CCOc2ccc(CC3SC(=O)NC3=O)cc2)nc1 (stereo not shown)	Fatty acid-binding protein, liver (FABP1, Homo sapiens, UniProt P07148)	binding, DAUDA displacement		together with: DAUDA		remaining fluorescence	< 18%
COc1ccc2c(=O)c(OC)c(-c3ccccc3)oc2c1	MAL12	enzyme activity, inhibitor, absorbance		100 µM		inhibition	91.7%

Excerpt of the above:
Substance	target	assay	test system	setting	how to read	endpoint	result
CCCCCC(=O)/C=C/C=O	Endoplasmic reticulum chaperone BiP (HSPA5, Homo sapiens, UniProt P11021)	ATPase activity, covalent inhibitor		1 h preincubation, pH 7.4, 37 °C, estimated value, together with: ATP 0.1 mM		IC50	43.9 µM
B1	Neuropilin-2 (NRP2, Homo sapiens, UniProt O60462)	sedimentation velocity AUC		2.5-fold molar excess, 8 µM b1b2 domain		apparent molecular mass, monomer peak	41.7 ± 1.8 kDa
BzATP	P2X purinoceptor 7 (P2rx7, Rattus norvegicus, UniProt Q64663, I214A)	ion current, agonist, two-electrode voltage clamp	Xenopus laevis oocytes	10 µM, I214A mutant		deactivation time constant	21 ± 3.5 s
